Assay results of several laboratories.
Each numbered part is a random draw from the data of one study; scales do not carry over between parts. Values joined by “and” are separate records of one study, mostly repeats; a detail may differ.
UniProt P29597, sequence (whole entry, looked up): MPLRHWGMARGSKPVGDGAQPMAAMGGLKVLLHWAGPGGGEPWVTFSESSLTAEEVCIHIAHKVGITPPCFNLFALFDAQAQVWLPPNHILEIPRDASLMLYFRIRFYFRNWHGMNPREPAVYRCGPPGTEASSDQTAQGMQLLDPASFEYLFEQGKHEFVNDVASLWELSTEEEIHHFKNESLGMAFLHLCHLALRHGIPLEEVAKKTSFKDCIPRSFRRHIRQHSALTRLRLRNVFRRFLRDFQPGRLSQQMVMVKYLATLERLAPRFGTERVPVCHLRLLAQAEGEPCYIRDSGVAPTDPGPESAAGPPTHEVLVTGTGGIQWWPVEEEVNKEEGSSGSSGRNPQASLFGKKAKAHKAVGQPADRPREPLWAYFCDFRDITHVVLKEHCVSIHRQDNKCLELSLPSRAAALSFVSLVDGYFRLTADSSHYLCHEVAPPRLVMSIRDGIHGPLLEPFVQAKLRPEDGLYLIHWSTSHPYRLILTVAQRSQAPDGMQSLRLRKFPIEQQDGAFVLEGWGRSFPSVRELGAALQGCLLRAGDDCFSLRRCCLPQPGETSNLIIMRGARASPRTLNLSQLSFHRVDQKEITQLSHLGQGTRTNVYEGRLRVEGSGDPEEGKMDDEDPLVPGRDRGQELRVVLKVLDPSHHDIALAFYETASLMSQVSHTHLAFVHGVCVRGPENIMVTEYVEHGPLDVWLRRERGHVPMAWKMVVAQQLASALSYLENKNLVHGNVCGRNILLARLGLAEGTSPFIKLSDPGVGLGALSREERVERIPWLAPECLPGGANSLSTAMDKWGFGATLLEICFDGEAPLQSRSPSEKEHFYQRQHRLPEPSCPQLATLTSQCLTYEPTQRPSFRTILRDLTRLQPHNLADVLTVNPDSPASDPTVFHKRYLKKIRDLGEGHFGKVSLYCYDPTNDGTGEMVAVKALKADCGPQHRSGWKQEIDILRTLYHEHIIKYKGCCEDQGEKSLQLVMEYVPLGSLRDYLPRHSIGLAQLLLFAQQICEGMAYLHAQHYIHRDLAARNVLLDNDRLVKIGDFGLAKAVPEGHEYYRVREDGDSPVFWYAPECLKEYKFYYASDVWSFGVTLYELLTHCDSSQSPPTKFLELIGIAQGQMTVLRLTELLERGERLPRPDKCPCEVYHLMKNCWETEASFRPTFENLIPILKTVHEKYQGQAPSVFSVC
UniProt O15075, sequence (whole entry, looked up): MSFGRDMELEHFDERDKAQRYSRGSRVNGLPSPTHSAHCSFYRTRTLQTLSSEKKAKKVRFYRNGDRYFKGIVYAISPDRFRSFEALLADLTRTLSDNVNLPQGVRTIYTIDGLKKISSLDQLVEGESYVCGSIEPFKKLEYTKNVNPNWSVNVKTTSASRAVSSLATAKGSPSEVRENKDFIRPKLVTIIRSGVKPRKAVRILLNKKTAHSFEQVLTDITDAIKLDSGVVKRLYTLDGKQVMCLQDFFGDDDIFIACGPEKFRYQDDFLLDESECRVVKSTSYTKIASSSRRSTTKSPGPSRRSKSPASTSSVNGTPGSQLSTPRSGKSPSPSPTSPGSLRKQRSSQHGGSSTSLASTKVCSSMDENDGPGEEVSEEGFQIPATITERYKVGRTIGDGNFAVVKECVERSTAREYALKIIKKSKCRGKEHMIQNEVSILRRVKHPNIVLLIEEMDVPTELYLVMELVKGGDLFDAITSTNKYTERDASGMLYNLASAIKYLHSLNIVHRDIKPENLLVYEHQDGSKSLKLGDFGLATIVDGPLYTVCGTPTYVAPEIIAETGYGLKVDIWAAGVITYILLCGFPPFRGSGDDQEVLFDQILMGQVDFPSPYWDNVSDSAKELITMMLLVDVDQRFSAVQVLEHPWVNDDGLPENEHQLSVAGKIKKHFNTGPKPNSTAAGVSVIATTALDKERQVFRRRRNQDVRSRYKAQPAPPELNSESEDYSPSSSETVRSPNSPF
UniProt O75116, sequence (whole entry, looked up): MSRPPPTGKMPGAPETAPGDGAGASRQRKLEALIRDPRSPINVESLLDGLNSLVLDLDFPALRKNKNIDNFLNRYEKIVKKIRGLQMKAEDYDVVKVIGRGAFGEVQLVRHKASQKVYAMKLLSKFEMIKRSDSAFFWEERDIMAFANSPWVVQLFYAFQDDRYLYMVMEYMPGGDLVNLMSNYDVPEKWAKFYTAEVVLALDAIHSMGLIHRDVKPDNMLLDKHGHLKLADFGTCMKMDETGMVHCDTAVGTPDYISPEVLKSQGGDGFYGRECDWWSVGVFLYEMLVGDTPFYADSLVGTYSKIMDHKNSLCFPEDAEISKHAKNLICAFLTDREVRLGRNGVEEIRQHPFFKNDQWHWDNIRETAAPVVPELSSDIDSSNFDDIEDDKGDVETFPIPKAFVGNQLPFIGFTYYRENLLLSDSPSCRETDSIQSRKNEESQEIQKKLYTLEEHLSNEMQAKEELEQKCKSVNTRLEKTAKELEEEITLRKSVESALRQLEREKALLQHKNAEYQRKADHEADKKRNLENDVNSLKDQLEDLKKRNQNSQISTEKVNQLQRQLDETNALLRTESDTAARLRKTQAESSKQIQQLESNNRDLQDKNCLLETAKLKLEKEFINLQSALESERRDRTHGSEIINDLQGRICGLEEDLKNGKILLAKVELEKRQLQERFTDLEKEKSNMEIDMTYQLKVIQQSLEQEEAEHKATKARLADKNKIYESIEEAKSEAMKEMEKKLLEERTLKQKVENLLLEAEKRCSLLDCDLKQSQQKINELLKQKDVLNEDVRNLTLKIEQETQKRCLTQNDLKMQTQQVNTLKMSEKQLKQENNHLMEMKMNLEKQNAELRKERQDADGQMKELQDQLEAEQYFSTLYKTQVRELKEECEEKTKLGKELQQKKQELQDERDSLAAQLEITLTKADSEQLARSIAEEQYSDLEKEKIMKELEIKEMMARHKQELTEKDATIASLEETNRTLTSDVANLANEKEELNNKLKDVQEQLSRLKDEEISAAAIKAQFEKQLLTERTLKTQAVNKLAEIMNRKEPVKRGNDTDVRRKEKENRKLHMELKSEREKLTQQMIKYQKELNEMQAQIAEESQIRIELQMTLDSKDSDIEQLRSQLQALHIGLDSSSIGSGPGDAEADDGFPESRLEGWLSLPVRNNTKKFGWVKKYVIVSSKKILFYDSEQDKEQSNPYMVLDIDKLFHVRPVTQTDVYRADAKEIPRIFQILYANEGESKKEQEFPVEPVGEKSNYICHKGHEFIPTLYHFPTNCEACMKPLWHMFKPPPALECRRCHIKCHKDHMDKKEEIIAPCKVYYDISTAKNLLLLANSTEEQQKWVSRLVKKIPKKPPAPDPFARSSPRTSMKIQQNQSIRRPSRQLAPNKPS
UniProt O43683, sequence (whole entry, looked up): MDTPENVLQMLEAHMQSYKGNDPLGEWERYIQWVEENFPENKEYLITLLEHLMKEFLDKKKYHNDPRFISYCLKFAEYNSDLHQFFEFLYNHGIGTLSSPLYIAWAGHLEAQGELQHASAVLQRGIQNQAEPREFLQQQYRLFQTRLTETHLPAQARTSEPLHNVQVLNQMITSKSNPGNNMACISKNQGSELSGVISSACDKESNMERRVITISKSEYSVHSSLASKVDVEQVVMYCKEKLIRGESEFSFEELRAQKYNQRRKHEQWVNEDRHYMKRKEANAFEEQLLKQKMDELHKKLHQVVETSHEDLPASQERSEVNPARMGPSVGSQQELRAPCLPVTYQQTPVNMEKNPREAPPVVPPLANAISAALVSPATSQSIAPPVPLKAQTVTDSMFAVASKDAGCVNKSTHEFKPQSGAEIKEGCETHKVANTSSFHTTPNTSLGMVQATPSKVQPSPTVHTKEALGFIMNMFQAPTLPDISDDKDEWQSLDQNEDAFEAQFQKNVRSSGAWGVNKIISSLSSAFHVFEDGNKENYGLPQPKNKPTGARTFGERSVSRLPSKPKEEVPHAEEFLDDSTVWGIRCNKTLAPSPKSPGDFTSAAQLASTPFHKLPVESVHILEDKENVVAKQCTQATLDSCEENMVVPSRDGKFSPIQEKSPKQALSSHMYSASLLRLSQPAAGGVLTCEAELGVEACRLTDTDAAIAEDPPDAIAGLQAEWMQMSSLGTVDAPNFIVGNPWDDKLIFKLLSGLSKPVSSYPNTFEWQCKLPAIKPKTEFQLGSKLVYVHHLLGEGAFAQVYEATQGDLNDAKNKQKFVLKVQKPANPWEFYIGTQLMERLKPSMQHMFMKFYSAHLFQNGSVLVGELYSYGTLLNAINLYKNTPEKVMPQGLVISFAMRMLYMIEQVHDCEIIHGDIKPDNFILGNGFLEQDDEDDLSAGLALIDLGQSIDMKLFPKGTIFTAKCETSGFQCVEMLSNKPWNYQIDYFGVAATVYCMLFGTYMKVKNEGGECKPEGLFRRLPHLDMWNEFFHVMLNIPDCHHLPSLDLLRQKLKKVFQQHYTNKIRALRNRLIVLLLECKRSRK
UniProt Q13188, sequence (whole entry, looked up): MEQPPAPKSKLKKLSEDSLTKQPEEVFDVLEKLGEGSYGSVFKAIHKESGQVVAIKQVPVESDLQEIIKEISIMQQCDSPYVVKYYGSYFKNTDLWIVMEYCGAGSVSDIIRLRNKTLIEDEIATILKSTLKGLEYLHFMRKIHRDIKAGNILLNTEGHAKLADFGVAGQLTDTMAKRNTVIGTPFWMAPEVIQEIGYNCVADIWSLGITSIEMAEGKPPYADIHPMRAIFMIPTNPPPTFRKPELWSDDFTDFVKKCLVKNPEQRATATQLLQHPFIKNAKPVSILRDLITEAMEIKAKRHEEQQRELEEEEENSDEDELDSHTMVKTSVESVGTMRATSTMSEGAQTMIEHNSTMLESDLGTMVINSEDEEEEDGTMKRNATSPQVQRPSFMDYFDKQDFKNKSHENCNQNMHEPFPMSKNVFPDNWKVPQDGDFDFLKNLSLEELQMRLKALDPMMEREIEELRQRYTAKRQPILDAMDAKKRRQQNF

Set 1
Organism: Arabidopsis thaliana
Strain: Col-0
Tested at: 25 µg/mL
Setting: seed germination, single repetition
| Compound | hypocotyl length |
| --- | --- |
| O=C(O)C1Oc2cc(F)ccc2N(Cc2ccccc2)C1=O (stereo not shown) | 2.03 cm and 2.11 cm and 2.01 cm and 2.09 cm |
| O=C(O)C1(O)Oc2cc(Br)ccc2N(Cc2ccccc2)C1=O (stereo not shown) | 1.78 cm and 1.7 cm and 1.73 cm and 1.72 cm and 1.69 cm |
| CCN1C(=O)C(O)(C(=O)O)Oc2cc(F)ccc21 (stereo not shown) | 1.79 cm and 1.74 cm and 1.71 cm and 1.76 cm and 1.73 cm |
| CCCN1C(=O)C(O)(C(=O)O)Oc2cc(F)ccc21 (stereo not shown) | 1.67 cm and 1.79 cm and 1.68 cm and 1.7 cm |
| CC(C)=CCN1C(=O)C(O)(C(=O)O)Oc2cc(F)ccc21 (stereo not shown) | 1.85 cm and 1.86 cm and 1.81 cm and 1.88 cm and 1.82 cm |

Set 2
Compound: Cc1ncsc1-c1ccc(C(CO)NC(=O)C2CC(O)CN2C(=O)C(NC(=O)c2ccc(COc3c(-c4c(C)c(F)cc5[nH]ncc45)c(C4CC4)cc4c(N5CC6CC5CN6)nc(OC5CCOCC5)nc34)cc2)C(C)C)cc1 (stereo not shown)
Time: 6 days
| cell line | test | setting | viability |
| --- | --- | --- | --- |
| ASPC1 | cell growth or viability, ATP luminescence | 10 µM | 6.26% and 4.66% and 4.6% and 3.98% and 4.08% and 5.45% |
| AsPC-1 | CellTiter-Glo | 10 nM | 87.2% and 84.8% and 90.5% |
| ASPC1 | cell growth or viability, ATP luminescence | 3 µM | 4.3% and 6.37% and 7.33% and 3.97% and 5.5% and 5.26% |
| ASPC1 | cell growth or viability, ATP luminescence | 3 nM | 87.2% and 94.8% and 79.2% and 89.7% and 84.9% and 79.7% |
| ASPC1 | cell growth or viability, ATP luminescence | 0.3 µM | 36.4% and 24.7% and 39.5% and 24% and 21.8% and 27.1% |
| AsPC-1 | CellTiter-Glo | 1 nM | 90.7% and 82.5% and 78.1% |
| ASPC1 | cell growth or viability, ATP luminescence | 30 nM | 84.2% and 84% and 87.6% and 80.9% and 93.1% and 78.4% |
| ASPC1 | cell growth or viability, ATP luminescence | 1 µM | 8% and 6.9% and 4.25% and 7.37% and 8.36% and 7.74% |

Set 3
SMILES: COc1cc(-c2nc3ccc(C(=O)NCCCN4CCN(c5cccc(C)c5C)CC4)cc3n2C2CCC2)cc(OC)c1OC
Read-out: binding
Method: competition with immobilised ligand
Tested at: 1 µM
| target | remaining binding [%] |
| --- | --- |
| FLT3 (Homo sapiens, UniProt P36888, D835H) | 86 |
| MYLK (Homo sapiens, UniProt Q15746) | 75 |
| MAPKAPK2 (Homo sapiens, UniProt P49137) | 90 |
| Non-receptor tyrosine-protein kinase TYK2, JH1 (TYK2, Homo sapiens, UniProt P29597) | 100 |
| NTRK2 (Homo sapiens, UniProt Q16620) | 100 |
| BUB1 (Homo sapiens, UniProt O43683) | 85 |
| EGFR (Homo sapiens, UniProt P00533, del746-750) | 84 |
| CSNK2A1 (Homo sapiens, UniProt P68400) | 81 |
| Ribosomal protein S6 kinase alpha-6, C-terminal kinase domain (RPS6KA6, Homo sapiens, UniProt Q9UK32) | 100 |
| WNK1 (Homo sapiens, UniProt Q9H4A3) | 97 |
| MELK (Homo sapiens, UniProt Q14680) | 94 |
| CILK1 (Homo sapiens, UniProt Q9UPZ9) | 88 |
| DCLK1 (Homo sapiens, UniProt O15075) | 79 |
| NIM1K (Homo sapiens, UniProt Q8IY84) | 92 |
| CASK (Homo sapiens, UniProt O14936) | 89 |
| LYN (Homo sapiens, UniProt P07948) | 79 |
| ROCK2 (Homo sapiens, UniProt O75116) | 89 |
| STK3 (Homo sapiens, UniProt Q13188) | 94 |
| Non-receptor tyrosine-protein kinase TYK2, JH2 (TYK2, Homo sapiens, UniProt P29597) | 99 |
| Receptor-type tyrosine-protein kinase FLT3, autoinhibited (FLT3, Homo sapiens, UniProt P36888) | 97 |
| Ribosomal protein S6 kinase alpha-5, N-terminal kinase domain (RPS6KA5, Homo sapiens, UniProt O75582) | 100 |
| INSRR (Homo sapiens, UniProt P14616) | 88 |
| ACVR1B (Homo sapiens, UniProt P36896) | 66 |

Set 4
Compound: CCN1/C(=C/C=C2\CCCC(/C=C/C3=[N+](CC)c4ccccc4C3(C)C)=C2NCCCCCCCCN2CCC(Nc3nc4ccccc4n3Cc3ccc(F)cc3)CC2)C(C)(C)c2ccccc21
Cell line: U-87 MG
Tested at: concentration not given
Relative to: DMSO
| test | log2 fold change |
| --- | --- |
| measured: TSPAN13 mRNA | 1.73 |
| measured: C11orf96 mRNA | 2.34 |
| measured: SP5 mRNA | -2.06 |
| measured: RPS6KA5 mRNA | 1.16 |
| measured: SMC4 mRNA | -1.43 |
| measured: VTI1A mRNA | 1.02 |
| measured: F2RL1 mRNA | -1.78 |
| measured: ZXDB mRNA | 1.25 |
| measured: TP53RK mRNA | 1.02 |
| measured: GORASP2 mRNA | 0.874 |
| measured: CIT mRNA | -1.84 |
| measured: FAM210A mRNA | 1.19 |
| measured: ZBTB12 mRNA | -1.5 |
| measured: JADE1 mRNA | -1.29 |
| measured: LXN | -1.71 |
| measured: SMCR8 mRNA | 0.886 |

Some of these lines once more (set 4):
| test | log2 fold change |
| --- | --- |
| measured: F2RL1 mRNA | -1.78 |
| measured: ZXDB mRNA | 1.25 |
| measured: TP53RK mRNA | 1.02 |
